# Experimental data pooled from the literature.
# Every numbered part comes from another study and shows a few of its results, in no order.

# Set 1 — method: RNA Bind-n-Seq; molecule type: RNA; medium: in vitro; tested at: 365 nM; reference: no-protein control; reading: higher = stronger binding
# Target: RNA binding protein fox-1 homolog 2, RRM domain, GST-SBP tag (RBFOX2, Homo sapiens, UniProt O43251-10, residues 100-194)
# Setting: natural RNA segment, single round, ends assumed
# All sequences stand within: GGGAGUUCUACAGUCCGACGAUC … UGGAAUUCUCGGGUGCCAA
# Construct (chain): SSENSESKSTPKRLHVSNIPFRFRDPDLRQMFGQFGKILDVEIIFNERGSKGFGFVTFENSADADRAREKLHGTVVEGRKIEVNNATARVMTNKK
Strand,RBNS enrichment (R)
ACUUGUAGAUUCCUGAAUUUAUUCCAUACAUAAUUAUUUCCUUAAGUUAUUUAAUUAUUAAAGGUGCCACGGUGGGACCUUUGGGAUGACUUAAAAAGGGUUCUUUGUUG,0.427
GCUCCUUCACACCCCUUCCAAAAGUCAGUCACAGACCACUGCAACAUGCCUUCCCUGCUGGAUCAUUAUAUACAUUCAGAUUGUGAGUGGAUUGCCUUGGUUGACUUUUA,0.51
AUCUAGUCUAUUUGUGUUAAAACAUGCUUUCAGAUGGAAGACGAACAUUCAUCUUAUAAAUGAACAGAAAAUAAACUAGUCUGGCCCUUUGAGUUUGUCACUCCAGUAAC,0.381
GUUCUACUCAGUGCCAUAGAUAGACUGAGUCUUCUCUCGUAGGUUACCAUUACAUAGUAAUUUUGAUUCUGAAUUUCACAUUAAAUUAUUUGAGUUUAUACAGACCUAAA,0.352
UGUAGGUAGUUGGAAGUGUAGAGAGAAGAGAAGGUAAGACUUCUCAGUGAAUGGAAGGAUGUCUUGAUGCUCAAGAGUCCCCGCCCCCAAAGUACGGGUAAUUCAGCCUG,1.12
CUAACAUCCCUGCCUGGUAGCCAGACUAGCCCACUAAAGCUCCCCUGUAAAUGGGGGCUCCAUUAGUUCUGCUGCCGAGACUAAUAAAGAUUUGGUUGGCUCUAGCAGUA,0.385
GGUUCUCCAGGACCUUAGGUUUGAUGCGGAAUCUGCCGAGUGAUGGCGGCUCCCCAGGGAUGCGCCGAGGGAGAUGGGAAACGGGGCGGAUGGCGCCCAGCCCAGCCCUA,2.55
GCUGCUCUUAGCGCCGGCUCUGCCUCUCCACCCUUGGCAGGGCUGGCUGGAGUUGCUGUGGGGACUGAUUUUCUGGGUGGGGAAGCAGCCAUCUAUUCUUGCAGCCAUCU,0.278

# Set 2 — method: protein-binding microarray; molecule type: double-stranded DNA, one strand shown; medium: in vitro; tested at: 0.8 µM; setting: whole 60-bp probe, no competitor; reading: higher = stronger binding; all sequences stand within: … GTCTTGATTCGCTTGACGCTGCTG
# Target: Centromere-binding protein 1, full length, N-terminal tag (CBF1, Saccharomyces cerevisiae, UniProt P17106, residues 1-351)
# UniProt P17106, sequence (whole entry, looked up): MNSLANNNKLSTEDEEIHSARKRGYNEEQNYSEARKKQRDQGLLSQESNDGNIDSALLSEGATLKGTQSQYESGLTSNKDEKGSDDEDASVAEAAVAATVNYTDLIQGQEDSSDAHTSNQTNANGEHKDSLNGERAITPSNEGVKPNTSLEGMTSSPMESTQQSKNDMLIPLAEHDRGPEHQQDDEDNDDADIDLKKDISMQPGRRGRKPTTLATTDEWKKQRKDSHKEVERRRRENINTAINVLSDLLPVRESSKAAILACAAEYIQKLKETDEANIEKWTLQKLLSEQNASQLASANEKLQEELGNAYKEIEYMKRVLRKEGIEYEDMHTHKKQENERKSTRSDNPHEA
Strand,fluorescence intensity [a.u.]
CTATAGCGCAAAAGTCACCTGGGTGGCGTTTTCTTC,850
CTATCCTTTCTTAGCTTGGTGACGGAATATATTTTC,530
CTACTGCTTTTCCTCGAGGTCACCCAAATATACTTC,533
GAAATTTCACTTAAGCACGCAAATGCTATTTTTTAG,505
CTAAGTAGACCAATTGACGTCATTTACTGAAACTTC,516

# Set 3 — read-out: enzyme activity; action: inhibitor; tested at: 20 µM
# Target: Replicase polyprotein 1ab, polymerase (rep, Severe acute respiratory syndrome coronavirus 2, UniProt P0DTD1)
Compound,inhibition [%]
O=C(Nc1ccc(OC(F)(F)F)cc1)c1sccc1NCc1ccnc2ccccc12,-3.72
COc1ccc(Cc2nn3c([C@@H](CCCc4ccccc4)[C@@H](C)O)nc(C)c3c(=O)[nH]2)cc1OC,-1.42
CCCCCNC(=N)N/N=C/c1c[nH]c2ccc(OC)cc12,-1.81
C[N@+]12CCCC[C@@H]1CCC(=C(c1cccs1)c1cccs1)C2 (racemic),-2.71
C[C@]12CC[C@@H]3c4ccc(O)cc4CC[C@H]3[C@@H]1CC[C@@H]2OC(=O)CCC1CCCC1,7.69
CCCCC/C=C\C/C=C\C/C=C\C/C=C\CCCC(=O)Nc1ccc(O)cc1,5.37
CCNC(=O)[C@@H]1CCCN1C(=O)[C@H](CCCNC(=N)N)NC(=O)[C@H](CC(C)C)NC(=O)[C@@H](CC(C)C)NC(=O)[C@H](Cc1ccc(O)cc1)NC(=O)[C@H](CO)NC(=O)[C@H](Cc1c[nH]c2ccccc12)NC(=O)[C@H](Cc1c[nH]cn1)NC(=O)[C@@H]1CCC(=O)N1,-0.24
N#Cc1ccc(-c2ccc(S(=O)(=O)Nc3cccc(N)n3)cc2)cc1,-3.56
Oc1cc(O)c(Cl)cn1,1.77
CN1c2c(oc(=O)n(-c3ccccn3)c2=O)-c2ccccc2S1(=O)=O,1.66
CC(C)=CCC/C(C)=C/CC/C(C)=C/CC/C(C)=C/CC1=C(C)C(=O)c2ccccc2C1=O,-4.54
COc1ccc2cc(-c3cc(-c4cc(Cl)cc(Cl)c4)nn3[C@@H](C)c3ccc(C(=O)NCCC(=O)O)cc3)ccc2c1,-8.81
CCNC1=Nc2ccc(Cl)cc2C(C)(c2ccccc2)O1 (stereo not drawn),-11.5
COc1cccc(-c2cc(F)ccc2[C@H]2Cc3nc(N)nc(C)c3C(=O)N2)n1,-4.5
O=C1Nc2ccc(Cl)c3c2C1(CCCCN1CC=C(c2ccc(Cl)cc2)CC1)CCC3 (stereo not drawn),10.4
O=C1NC(=O)/C(=C/c2ccc3c(c2)OC(F)(F)O3)S1,-2.32
Cc1cc(S(=O)(=O)O)c2c(C)ccc(C(C)C)cc1-2,2.76
CCc1cc2c(cc1N1CCC(N3CCOCC3)CC1)C(C)(C)c1[nH]c3cc(C#N)ccc3c1C2=O,5.38
CCOC(=O)c1ccc(N)cc1,-1.43
CC1(C)O[C@H]2CC(=O)OC[C@]23[C@H]2CC[C@@]4(C)[C@H](c5ccoc5)OC(=O)[C@H]5O[C@]54[C@]2(C)C(=O)C[C@@H]13,-2.73
C[C@@H]1NC(=O)[C@@H]2CCCN2C(=O)[C@H](CC(N)=O)NC(=O)[C@@H]2CSSC[C@H](N)C(=O)N[C@H]3CSSC[C@H](NC1=O)C(=O)N[C@@H]([C@@H](C)O)C(=O)NCC(=O)N[C@H](C(=O)N[C@@H](Cc1ccc(O)cc1)C(=O)O)CSSC[C@H](NC(=O)[C@H](Cc1ccc(O)cc1)NC(=O)[C@H](CCC(=O)O)NC3=O)C(=O)N2,1.54
Cc1cc(NC(=O)Nc2ccc(N(C)C)cc2)c2cc(F)cc(F)c2n1,-2.81
C[N+]1(C)CCC(=C(c2ccccc2)c2ccccc2)CC1,-1.13
CCOc1cc(N2CCC(O)CC2)ccc1Nc1ncc2c(n1)N(C)c1ccccc1C(=O)N2C,-0.92
Cc1ccc([N+](=O)[O-])cc1S(=O)(=O)N(C)C,5.63

# Set 4 — cell line: HEK-293T/ACE2; read-out: pseudovirus infection; organism: VSV pseudotyped with SARS-CoV-2 spike; tested at: 10 µM; time: 16 h; reference: vehicle-treated
SMILES,GFP-positive cells
Cc1cc(C)cc(OCC2CNC(=O)O2)c1 (stereo not drawn),59%
C#C[C@]1(O)CC[C@H]2[C@@H]3CCc4cc(OC)ccc4[C@H]3CC[C@@]21C,69.3%
CCN(C)C(=O)Oc1cccc([C@H](C)N(C)C)c1,63.7%

# Set 5 — method: protein binding microarray; molecule type: double-stranded DNA, one strand shown; medium: in vitro; tested at: not given; reference: not given; reading: higher = stronger binding
# Target: Histone acetyltransferase KAT6A, both winged helices, GST fusion (KAT6A, Homo sapiens, UniProt Q92794, residues 1-181)
# Setting: 8-mer, flanks averaged, mean of 2 arrays, mostly near background
# Construct (chain): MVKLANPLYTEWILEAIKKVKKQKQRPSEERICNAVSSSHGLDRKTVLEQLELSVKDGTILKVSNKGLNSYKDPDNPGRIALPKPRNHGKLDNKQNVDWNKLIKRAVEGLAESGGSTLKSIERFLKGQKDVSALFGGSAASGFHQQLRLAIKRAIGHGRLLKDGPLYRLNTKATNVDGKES
Strand,E-score
ATACGTGC,-0.0533
CAATGGAG,-0.0689
GAACTCCC,-0.0718
TAGGCCCA,-0.212
AGTGGGAC,-0.191
CCCATAAG,0.00457
GCACCATA,-0.0452
CTCTTAGC,-0.0418

# Set 6 — read-out: enzyme activity; action: inhibitor; tested at: 20 µM; setting: primary screen
# Target: Replicase polyprotein 1ab, main protease (rep, Severe acute respiratory syndrome coronavirus 2, UniProt P0DTD1)
Structure (SMILES),inhibition
CC[C@]1(O)C[C@@H]2C[N@@](CCc3c([nH]c4ccccc34)[C@@](C(=O)OC)(c3cc4c(cc3OC)N(C)[C@H]3[C@@](O)(C(=O)OC)[C@H](OC(C)=O)[C@]5(CC)C=CCN6CC[C@]43[C@@H]65)C2)C1,47.6%
COc1cc2c(cc1OCCCN1CCCC1)N=C(N)C21CCC1,35.4%
Nc1nc(Nc2ccc3c(c2)CC[C@@H](N2CCCC2)CC3)nn1-c1cc2c(nn1)-c1ccccc1CCC2,30.2%
O=C(O)c1ccc(SSc2ccc(C(=O)O)cn2)nc1,100%
CN(C)/N=N/c1ccc(C(=O)O)cc1,71.5%

# Some of these lines once more (set 3):
Compound,inhibition [%]
CN1c2c(oc(=O)n(-c3ccccn3)c2=O)-c2ccccc2S1(=O)=O,1.66
Cc1cc(S(=O)(=O)O)c2c(C)ccc(C(C)C)cc1-2,2.76
N#Cc1ccc(-c2ccc(S(=O)(=O)Nc3cccc(N)n3)cc2)cc1,-3.56
C[N+]1(C)CCC(=C(c2ccccc2)c2ccccc2)CC1,-1.13
